Published values of several laboratories.
Numbered parts are unrelated; each lists some results of a single study.
UniProt P15056, sequence (whole entry, unmodified, looked up): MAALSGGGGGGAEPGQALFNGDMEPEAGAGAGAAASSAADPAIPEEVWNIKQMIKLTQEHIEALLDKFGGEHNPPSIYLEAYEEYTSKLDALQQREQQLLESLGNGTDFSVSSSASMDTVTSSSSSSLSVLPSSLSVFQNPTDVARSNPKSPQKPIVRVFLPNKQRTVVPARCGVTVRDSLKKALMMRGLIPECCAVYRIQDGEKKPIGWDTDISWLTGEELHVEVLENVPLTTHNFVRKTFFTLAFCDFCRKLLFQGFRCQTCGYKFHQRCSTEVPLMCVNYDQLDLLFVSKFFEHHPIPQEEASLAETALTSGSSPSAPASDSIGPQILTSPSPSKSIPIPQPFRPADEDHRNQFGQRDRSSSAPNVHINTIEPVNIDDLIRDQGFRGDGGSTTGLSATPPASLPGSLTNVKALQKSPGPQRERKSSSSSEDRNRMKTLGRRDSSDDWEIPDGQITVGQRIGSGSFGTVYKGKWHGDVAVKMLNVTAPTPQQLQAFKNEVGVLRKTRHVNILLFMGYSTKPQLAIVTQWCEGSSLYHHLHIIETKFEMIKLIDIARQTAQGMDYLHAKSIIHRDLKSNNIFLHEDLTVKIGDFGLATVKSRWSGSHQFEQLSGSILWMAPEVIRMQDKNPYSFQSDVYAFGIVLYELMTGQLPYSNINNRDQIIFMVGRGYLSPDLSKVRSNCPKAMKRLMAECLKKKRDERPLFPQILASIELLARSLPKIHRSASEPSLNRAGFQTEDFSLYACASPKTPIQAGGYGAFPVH
UniProt Q8NEV4, sequence (whole entry, looked up): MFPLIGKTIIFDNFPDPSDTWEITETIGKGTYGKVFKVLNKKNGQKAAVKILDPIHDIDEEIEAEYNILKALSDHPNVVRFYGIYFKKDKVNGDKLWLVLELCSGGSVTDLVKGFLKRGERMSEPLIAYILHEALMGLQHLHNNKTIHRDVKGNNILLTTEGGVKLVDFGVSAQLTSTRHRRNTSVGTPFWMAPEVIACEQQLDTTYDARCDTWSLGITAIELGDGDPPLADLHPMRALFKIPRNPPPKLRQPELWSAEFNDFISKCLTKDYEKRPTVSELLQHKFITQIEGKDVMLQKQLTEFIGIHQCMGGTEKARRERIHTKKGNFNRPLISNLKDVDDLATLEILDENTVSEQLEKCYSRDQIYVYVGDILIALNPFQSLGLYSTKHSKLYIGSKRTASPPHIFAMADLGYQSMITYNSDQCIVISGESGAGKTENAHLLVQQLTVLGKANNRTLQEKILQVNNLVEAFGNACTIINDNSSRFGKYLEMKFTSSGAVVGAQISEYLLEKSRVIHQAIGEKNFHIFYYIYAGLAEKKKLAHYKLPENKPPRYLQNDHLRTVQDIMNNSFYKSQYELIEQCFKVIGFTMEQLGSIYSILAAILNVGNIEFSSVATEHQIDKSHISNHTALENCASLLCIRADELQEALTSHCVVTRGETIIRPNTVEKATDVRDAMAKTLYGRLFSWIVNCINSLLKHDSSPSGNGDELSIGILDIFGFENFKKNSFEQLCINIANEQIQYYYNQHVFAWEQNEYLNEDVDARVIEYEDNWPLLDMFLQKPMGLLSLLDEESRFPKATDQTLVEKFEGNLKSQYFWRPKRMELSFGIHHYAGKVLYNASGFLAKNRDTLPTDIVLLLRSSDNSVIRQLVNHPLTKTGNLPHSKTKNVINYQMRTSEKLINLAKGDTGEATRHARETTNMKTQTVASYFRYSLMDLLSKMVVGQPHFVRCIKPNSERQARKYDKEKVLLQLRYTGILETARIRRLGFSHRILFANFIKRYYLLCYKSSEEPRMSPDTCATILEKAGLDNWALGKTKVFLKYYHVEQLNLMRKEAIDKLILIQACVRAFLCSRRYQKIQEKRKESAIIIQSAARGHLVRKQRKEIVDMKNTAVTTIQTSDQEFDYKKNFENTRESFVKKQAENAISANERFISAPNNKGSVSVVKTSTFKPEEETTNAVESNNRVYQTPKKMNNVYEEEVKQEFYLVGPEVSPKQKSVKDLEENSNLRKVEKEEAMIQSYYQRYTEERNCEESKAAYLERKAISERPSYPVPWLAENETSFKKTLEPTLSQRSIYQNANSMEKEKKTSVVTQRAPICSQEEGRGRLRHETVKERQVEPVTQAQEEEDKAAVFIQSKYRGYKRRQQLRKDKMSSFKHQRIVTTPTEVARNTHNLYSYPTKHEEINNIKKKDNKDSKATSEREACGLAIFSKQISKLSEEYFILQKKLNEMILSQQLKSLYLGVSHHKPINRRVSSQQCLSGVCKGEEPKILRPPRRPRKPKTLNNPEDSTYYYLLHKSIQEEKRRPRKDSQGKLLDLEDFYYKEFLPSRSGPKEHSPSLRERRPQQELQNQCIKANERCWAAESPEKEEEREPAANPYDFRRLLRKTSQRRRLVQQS
UniProt O94921, sequence (whole entry, looked up): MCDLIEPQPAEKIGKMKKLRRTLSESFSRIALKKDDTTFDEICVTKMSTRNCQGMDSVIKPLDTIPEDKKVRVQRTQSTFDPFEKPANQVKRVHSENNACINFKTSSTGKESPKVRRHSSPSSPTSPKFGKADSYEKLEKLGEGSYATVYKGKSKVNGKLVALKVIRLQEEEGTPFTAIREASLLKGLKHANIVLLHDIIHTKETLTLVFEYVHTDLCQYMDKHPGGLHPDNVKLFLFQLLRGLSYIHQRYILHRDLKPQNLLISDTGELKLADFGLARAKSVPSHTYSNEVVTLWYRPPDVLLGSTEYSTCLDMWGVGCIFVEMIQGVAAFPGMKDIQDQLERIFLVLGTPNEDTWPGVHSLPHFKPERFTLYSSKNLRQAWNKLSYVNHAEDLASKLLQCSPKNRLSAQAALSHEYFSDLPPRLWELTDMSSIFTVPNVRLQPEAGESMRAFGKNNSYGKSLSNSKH
UniProt Q96PN8, sequence (whole entry, looked up): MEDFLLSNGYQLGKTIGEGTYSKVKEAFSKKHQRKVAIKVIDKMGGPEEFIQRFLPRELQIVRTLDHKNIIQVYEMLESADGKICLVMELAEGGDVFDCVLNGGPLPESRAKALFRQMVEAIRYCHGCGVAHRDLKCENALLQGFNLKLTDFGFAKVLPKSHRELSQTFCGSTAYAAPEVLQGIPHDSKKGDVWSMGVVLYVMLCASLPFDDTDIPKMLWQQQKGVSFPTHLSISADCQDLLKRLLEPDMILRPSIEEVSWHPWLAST
UniProt P78368, sequence (whole entry, looked up): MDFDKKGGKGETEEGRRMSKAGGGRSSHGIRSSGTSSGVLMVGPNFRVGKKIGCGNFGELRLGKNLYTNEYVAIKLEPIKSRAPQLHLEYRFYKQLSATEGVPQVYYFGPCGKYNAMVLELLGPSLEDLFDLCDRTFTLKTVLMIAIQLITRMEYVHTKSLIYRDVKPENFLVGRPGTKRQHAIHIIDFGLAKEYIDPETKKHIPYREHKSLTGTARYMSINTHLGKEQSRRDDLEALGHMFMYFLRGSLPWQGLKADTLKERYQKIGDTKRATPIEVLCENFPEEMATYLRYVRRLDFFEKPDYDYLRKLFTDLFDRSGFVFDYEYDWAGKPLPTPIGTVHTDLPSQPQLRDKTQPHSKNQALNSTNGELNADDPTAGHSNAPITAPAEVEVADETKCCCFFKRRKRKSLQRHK

Study 1 — species: human; matrix: microsomes or S9; tested at: 2 µM; time: 0.5 h; endpoint: remaining compound
C[C@H]1CCCC(=O)CCCCCc2cc(OCc3ccccc3)cc(O)c2C(=O)O1: 64%
Cc1ccc(OCCCCN(C)C)c(C(C)(C)C)c1: 70.3%
Cc1c(NC(=O)c2cnn3cc(Br)cnc23)c(=O)n(-c2ccccc2)n1C: 71.1%
COc1cc(-c2nc3ncccn3c2NC2CCCC2)cc(OC)c1OC: 10.7%
CCc1cnc(C)nc1NCC1CC(C(C)C)=NO1 (stereo not shown): 95.8%
CC1CCN(C=C(S(=O)(=O)c2ccccc2)S(=O)(=O)c2ccccc2)CC1: 0.629%
CC(C)(C)S(=O)(=O)c1ccc2nc3c(n2c1)CCCC3: 69%
CC(CC(=O)c1ccccc1)n1nnc(-c2ccccc2)n1 (stereo not shown): 1.26%
C=CCc1c(C)nc2c(-c3ccccc3)cnn2c1NCCCn1ccnc1: 70.3%
CCc1ccc(S(=O)(=O)C2CS(=O)(=O)CC2NCc2ccccc2C)cc1 (stereo not shown): 0.0405%
NS(=O)(=O)c1ccc(CCNCc2cccc(Oc3nnnn3-c3ccccc3)c2)cc1: > 100%
Cc1cc2c(cc1CNC1(c3ccccc3F)CCCC1)OCO2: 11.9%
OC(Cc1c[nH]c2ccccc12)(c1ccccc1)c1ccccc1: 95.9%
CC(C)COc1cc(=O)n2c(c1C(=O)N1CCN(c3ccccn3)CC1)CCCCC2: 35.8%
Cc1cccn2c(=O)c(/C=N/O)c(NCc3ccco3)nc12: > 99%

Study 2 — effect on: enzyme activity; action: inhibitor; tested at: 10 µM; endpoint: inhibition
Target: Calcium/calmodulin-dependent protein kinase type II subunit alpha (CAMK2A, Homo sapiens, UniProt Q9UQM7)
UniProt Q9UQM7, sequence (whole entry, looked up): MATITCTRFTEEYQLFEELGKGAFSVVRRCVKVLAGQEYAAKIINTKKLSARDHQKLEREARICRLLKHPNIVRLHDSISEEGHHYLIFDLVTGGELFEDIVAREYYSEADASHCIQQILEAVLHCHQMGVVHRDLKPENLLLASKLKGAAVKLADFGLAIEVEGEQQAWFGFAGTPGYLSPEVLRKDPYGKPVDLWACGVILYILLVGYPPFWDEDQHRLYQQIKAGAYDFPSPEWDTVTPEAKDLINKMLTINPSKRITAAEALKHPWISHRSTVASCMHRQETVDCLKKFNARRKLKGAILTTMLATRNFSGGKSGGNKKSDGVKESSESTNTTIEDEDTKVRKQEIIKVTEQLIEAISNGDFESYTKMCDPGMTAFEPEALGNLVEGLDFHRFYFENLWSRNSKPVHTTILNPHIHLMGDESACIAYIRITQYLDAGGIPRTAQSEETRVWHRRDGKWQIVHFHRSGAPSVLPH
NCCCC[C@H](N[C@@H](CCc1ccccc1)C(=O)O)C(=O)N1CCC[C@H]1C(=O)O: -2%
COc1cc(CCCO)ccc1O: 11%
CC(C(=O)O)c1ccc2c(c1)[nH]c1ccc(Cl)cc12 (stereo not shown): -2%
COc1ccc([C@@H]2CC(=O)c3c(O)cc(O[C@@H]4O[C@H](CO[C@@H]5O[C@@H](C)[C@H](O)[C@@H](O)[C@H]5O)[C@@H](O)[C@H](O)[C@H]4O)cc3O2)cc1: 27%
O=C1c2c(O)cc(O[C@@H]3O[C@H](CO)[C@@H](O)[C@H](O)[C@H]3O)cc2O[C@H](c2ccc(O)c(O)c2)[C@H]1O: 28%
N=C(N)Nc1ccc(C(=O)Oc2ccc3cc(C(=N)N)ccc3c2)cc1: -19%
CNNCc1ccc(C(=O)NC(C)C)cc1: 1%
O=C(O)CCc1cccc(O)c1: -33%

Study 3 — effect on: enzyme activity; action: inhibitor; tested at: 0.5 µM; reference: control; endpoint: remaining activity
Target: Fibroblast growth factor receptor 4 (FGFR4, Homo sapiens, UniProt P22455)
UniProt P22455, sequence (whole entry, looked up): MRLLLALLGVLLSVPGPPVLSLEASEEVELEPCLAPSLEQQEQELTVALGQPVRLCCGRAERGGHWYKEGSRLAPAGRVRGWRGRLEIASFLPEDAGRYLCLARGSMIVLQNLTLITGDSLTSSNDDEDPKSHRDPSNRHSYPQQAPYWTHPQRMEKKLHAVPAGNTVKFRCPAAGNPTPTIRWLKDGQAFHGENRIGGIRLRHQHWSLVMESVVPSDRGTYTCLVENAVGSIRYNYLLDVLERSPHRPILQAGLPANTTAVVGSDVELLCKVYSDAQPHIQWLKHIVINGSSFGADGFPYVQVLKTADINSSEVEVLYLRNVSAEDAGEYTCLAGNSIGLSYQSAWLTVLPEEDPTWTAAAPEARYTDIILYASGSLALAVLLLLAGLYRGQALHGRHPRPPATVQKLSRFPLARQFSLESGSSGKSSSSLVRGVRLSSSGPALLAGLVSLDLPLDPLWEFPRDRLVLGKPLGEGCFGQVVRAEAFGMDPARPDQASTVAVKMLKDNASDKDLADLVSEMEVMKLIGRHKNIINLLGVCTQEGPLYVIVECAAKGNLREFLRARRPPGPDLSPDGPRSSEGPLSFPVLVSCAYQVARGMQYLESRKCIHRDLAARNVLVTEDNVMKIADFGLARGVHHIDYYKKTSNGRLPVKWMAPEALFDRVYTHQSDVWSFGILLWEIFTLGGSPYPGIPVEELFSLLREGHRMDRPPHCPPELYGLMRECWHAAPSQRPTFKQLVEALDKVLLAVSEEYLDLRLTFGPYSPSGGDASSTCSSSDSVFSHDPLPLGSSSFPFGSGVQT
O=C(NC(NC(=S)Nc1ccc(F)c([N+](=O)[O-])c1)C(Cl)(Cl)Cl)C(c1ccccc1)c1ccccc1 (stereo not shown): 100%
c1ccc(-c2[nH]ncc2-c2ccnc3ccccc23)nc1: 80.6%
Ic1cccc(CSc2nnc(-c3ccncc3)o2)c1: 97.2%
CCN(CC)CCNC(=O)c1c(C)[nH]c(/C=C2\C(=O)Nc3ccc(F)cc32)c1C: 92.5%
Cn1nc2c3c(cccc31)C(=O)c1ccccc1-2: 108%
COc1cc2ncnc(Nc3ccc(O)c(Br)c3)c2cc1OC: 103%
c1ccc(-c2cnc(Nc3ccc(OCCN4CCCC4)cc3)s2)cc1: 95.6%
CCOc1nc(NC(=O)Cc2cc(OC)ccc2OC)cc(N)c1C#N: 109%
N#C/C(=C\c1ccc(O)c(O)c1)C(=O)NCc1ccccc1: 84.2%
O=C1c2ccccc2-c2n[nH]c3cccc1c23: 99.6%
CCN(CC)C(=O)c1ccc(Nc2nc(OCC3CCCCC3)c3[nH]cnc3n2)cc1: 94.4%
CCN(CC)CCNC(=O)c1c(C)[nH]c(/C=C2\C(=O)Nc3ccc(Cl)cc32)c1C: 70.5%
Cc1nc2cc3nc(-c4cccs4)cnc3cc2n1C: 96.3%
COc1cc2ncnc(Nc3cccc(Cl)c3)c2cc1OC: 78.7%
O=c1cc(-c2cccc3c2Sc2ccccc2S3)oc(N2CCOCC2)c1: 100%
Cc1cc2ncc(-c3ccccc3)nc2cc1C: 77.2%
COc1cc2c(cc1OC)-c1[nH]nc(Nc3cccc(F)c3)c1C2: 91.6%
O=C(Nc1cccc(Nc2nccc(Nc3cccc(C(F)(F)F)c3)n2)c1)C1CC1: 101%
CN(C)C[C@H]1CCn2c(c(C3=C(c4cn(C)c5ccccc45)C(=O)NC3=O)c3ccccc32)C1: 89.6%
Nc1cccc(-c2cc3c(Oc4cccc(O)c4)ncnc3[nH]2)c1: 45.1%
C[C@@H]1CCN(C(=O)CC#N)C[C@@H]1N(C)c1ncnc2[nH]ccc12: 94.3%
CN([C@@H](Cc1ccc(OS(=O)(=O)c2cccc3cnccc23)cc1)C(=O)N1CCN(c2ccccc2)CC1)S(=O)(=O)c1cccc2cnccc12: 110%
O=C1C(Cl)=C(N2C(=O)CCC2=O)C(=O)c2ccccc21: 105%
N#Cc1c(NC(=O)c2cccc3ccccc23)sc2c1CCCC2: 109%
Cc1cn(-c2cc(NC(=O)c3ccc(C)c(Nc4nccc(-c5cccnc5)n4)c3)cc(C(F)(F)F)c2)cn1: 99.4%

Study 4 — method: competition with immobilised ligand; tested at: 1 µM; endpoint: remaining binding
SMILES: O=C(O)[C@H]1[C@H](Cn2nnc3ccccc3c2=O)CC[C@@H]1C(=O)c1ccc(OCCC2CCOCC2)cc1
Testis-specific serine/threonine-protein kinase 3 (TSSK3, Homo sapiens, UniProt Q96PN8); cell-free assay: 85%
Epidermal growth factor receptor (EGFR, Homo sapiens, UniProt P00533, del747-752/P753S); cell-free assay: 76%
Serine/threonine-protein kinase D2 (PRKD2, Homo sapiens, UniProt Q9BZL6); cell-free assay: 73%
Phosphatidylinositol 4-kinase beta (PI4KB, Homo sapiens, UniProt Q9UBF8); cell-free assay: 93%
Serine/threonine-protein kinase Sgk3 (SGK3, Homo sapiens, UniProt Q96BR1); cell-free assay: 100%
Cyclin-dependent kinase 14 (CDK14, Homo sapiens, UniProt O94921); cell-free assay: 100%
Calcium/calmodulin-dependent protein kinase type II subunit delta (CAMK2D, Homo sapiens, UniProt Q13557); cell-free assay: 86%
Myosin light chain kinase family member 4 (MYLK4, Homo sapiens, UniProt Q86YV6); cell-free assay: 100%
Serine/threonine-protein kinase B-raf (BRAF, Homo sapiens, UniProt P15056); cell-free assay: 100%
Serine/threonine-protein kinase B-raf (BRAF, Homo sapiens, UniProt P15056, V600E); cell-free assay: 100%
Phosphatidylinositol 4,5-bisphosphate 3-kinase catalytic subunit beta isoform (PIK3CB, Homo sapiens, UniProt P42338); cell-free assay: 80%
Dual specificity protein kinase TTK (TTK, Homo sapiens, UniProt P33981); cell-free assay: 83%
Myosin-IIIa (MYO3A, Homo sapiens, UniProt Q8NEV4); binding: 100%
Calcium/calmodulin-dependent protein kinase type 1G (CAMK1G, Homo sapiens, UniProt Q96NX5); cell-free assay: 90%
Casein kinase I isoform gamma-2 (CSNK1G2, Homo sapiens, UniProt P78368); cell-free assay: 87%
Activated CDC42 kinase 1 (TNK2, Homo sapiens, UniProt Q07912); cell-free assay: 100%
Phosphatidylinositol 4,5-bisphosphate 3-kinase catalytic subunit delta isoform (PIK3CD, Homo sapiens, UniProt O00329); cell-free assay: 89%
Serine/threonine-protein kinase 16 (STK16, Homo sapiens, UniProt O75716); cell-free assay: 85%
Phosphatidylinositol 4-phosphate 3-kinase C2 domain-containing subunit beta (PIK3C2B, Homo sapiens, UniProt O00750); cell-free assay: 90%
Fibroblast growth factor receptor 4 (FGFR4, Homo sapiens, UniProt P22455); cell-free assay: 100%
Hormonally up-regulated neu tumor-associated kinase (HUNK, Homo sapiens, UniProt P57058); cell-free assay: 71%
Myosin light chain kinase, smooth muscle (MYLK, Homo sapiens, UniProt Q15746); cell-free assay: 74%
Dual specificity testis-specific protein kinase 1 (TESK1, Homo sapiens, UniProt Q15569); cell-free assay: 100%
Dual specificity mitogen-activated protein kinase kinase 2 (MAP2K2, Homo sapiens, UniProt P36507); cell-free assay: 100%
Tyrosine-protein kinase ABL1, non-phosphorylated (ABL1, Homo sapiens, UniProt P00519, F317L); cell-free assay: 75%

Some of these lines once more (study 4):
Hormonally up-regulated neu tumor-associated kinase (HUNK, Homo sapiens, UniProt P57058); cell-free assay: 71%
Myosin light chain kinase, smooth muscle (MYLK, Homo sapiens, UniProt Q15746); cell-free assay: 74%
Dual specificity testis-specific protein kinase 1 (TESK1, Homo sapiens, UniProt Q15569); cell-free assay: 100%
Dual specificity mitogen-activated protein kinase kinase 2 (MAP2K2, Homo sapiens, UniProt P36507); cell-free assay: 100%
Tyrosine-protein kinase ABL1, non-phosphorylated (ABL1, Homo sapiens, UniProt P00519, F317L); cell-free assay: 75%
